Measurements gathered from unrelated publications.
Each numbered part is a random draw from the data of one study; scales do not carry over between parts.
UniProt Q13233, sequence (whole entry, looked up): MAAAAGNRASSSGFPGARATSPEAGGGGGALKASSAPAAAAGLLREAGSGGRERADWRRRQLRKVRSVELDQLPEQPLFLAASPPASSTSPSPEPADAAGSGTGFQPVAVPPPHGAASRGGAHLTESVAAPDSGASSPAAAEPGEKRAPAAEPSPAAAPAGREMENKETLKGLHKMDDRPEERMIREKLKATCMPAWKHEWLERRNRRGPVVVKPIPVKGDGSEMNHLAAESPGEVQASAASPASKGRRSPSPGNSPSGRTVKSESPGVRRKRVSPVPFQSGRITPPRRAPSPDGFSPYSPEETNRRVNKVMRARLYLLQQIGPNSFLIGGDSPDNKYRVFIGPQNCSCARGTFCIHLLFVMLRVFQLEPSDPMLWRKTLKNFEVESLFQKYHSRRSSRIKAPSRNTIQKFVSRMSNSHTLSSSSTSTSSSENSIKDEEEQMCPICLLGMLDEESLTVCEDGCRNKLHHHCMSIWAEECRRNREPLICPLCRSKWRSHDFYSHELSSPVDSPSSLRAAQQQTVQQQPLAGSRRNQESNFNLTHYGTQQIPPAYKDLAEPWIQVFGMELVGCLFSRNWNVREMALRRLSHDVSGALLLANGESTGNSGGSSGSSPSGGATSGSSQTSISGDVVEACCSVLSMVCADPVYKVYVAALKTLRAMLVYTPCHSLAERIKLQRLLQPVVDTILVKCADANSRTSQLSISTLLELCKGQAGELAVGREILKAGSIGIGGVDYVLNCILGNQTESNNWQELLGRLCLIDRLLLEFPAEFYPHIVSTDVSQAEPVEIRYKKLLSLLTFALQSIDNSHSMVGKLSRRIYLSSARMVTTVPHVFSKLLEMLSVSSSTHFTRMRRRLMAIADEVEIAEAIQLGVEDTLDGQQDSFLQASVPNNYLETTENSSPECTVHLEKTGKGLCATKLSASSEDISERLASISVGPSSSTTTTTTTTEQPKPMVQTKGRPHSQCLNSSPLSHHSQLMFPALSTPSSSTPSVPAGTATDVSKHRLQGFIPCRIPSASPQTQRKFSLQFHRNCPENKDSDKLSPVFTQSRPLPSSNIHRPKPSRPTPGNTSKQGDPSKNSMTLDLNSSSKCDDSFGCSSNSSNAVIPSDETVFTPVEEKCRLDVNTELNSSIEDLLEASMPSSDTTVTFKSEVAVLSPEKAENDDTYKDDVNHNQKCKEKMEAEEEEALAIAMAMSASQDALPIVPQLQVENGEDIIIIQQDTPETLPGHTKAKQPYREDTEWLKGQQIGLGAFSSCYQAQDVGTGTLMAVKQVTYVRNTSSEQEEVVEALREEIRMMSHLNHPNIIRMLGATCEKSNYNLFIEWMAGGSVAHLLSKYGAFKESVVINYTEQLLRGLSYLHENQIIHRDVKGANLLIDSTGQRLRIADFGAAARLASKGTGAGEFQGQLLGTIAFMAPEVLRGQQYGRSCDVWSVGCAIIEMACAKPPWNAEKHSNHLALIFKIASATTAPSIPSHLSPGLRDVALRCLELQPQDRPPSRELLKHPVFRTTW
UniProt O75716, sequence (whole entry, looked up): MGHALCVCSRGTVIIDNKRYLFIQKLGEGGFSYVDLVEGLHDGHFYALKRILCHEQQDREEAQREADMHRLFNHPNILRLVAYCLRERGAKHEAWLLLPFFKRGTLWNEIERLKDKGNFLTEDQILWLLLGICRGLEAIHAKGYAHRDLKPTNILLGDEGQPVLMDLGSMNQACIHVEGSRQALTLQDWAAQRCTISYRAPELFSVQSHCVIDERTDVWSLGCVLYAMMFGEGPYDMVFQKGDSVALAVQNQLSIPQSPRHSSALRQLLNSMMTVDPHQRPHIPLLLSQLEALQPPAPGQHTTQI
UniProt O94806, sequence (whole entry, looked up): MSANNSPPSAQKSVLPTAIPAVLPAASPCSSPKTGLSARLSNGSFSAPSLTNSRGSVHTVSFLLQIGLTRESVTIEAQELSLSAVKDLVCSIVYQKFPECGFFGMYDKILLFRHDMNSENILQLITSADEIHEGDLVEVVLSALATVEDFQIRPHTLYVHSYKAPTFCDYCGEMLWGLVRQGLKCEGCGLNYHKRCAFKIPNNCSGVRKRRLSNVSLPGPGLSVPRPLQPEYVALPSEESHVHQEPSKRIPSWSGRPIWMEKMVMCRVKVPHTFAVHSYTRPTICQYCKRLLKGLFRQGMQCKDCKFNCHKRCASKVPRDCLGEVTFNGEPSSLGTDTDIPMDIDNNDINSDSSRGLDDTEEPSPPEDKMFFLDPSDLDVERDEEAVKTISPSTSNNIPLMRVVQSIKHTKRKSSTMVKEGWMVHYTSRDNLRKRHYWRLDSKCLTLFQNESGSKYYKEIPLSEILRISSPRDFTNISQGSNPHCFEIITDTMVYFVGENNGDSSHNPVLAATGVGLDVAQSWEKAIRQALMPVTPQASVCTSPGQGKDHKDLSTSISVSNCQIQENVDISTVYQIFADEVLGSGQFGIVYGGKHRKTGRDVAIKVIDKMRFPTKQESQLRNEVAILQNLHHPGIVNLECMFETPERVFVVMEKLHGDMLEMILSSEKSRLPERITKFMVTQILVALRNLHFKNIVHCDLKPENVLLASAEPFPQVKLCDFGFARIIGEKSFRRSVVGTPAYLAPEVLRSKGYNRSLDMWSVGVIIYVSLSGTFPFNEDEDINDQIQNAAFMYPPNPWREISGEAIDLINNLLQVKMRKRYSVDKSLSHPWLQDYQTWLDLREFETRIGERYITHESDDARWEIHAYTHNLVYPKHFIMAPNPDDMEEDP
UniProt Q9BWU1, sequence (whole entry, looked up): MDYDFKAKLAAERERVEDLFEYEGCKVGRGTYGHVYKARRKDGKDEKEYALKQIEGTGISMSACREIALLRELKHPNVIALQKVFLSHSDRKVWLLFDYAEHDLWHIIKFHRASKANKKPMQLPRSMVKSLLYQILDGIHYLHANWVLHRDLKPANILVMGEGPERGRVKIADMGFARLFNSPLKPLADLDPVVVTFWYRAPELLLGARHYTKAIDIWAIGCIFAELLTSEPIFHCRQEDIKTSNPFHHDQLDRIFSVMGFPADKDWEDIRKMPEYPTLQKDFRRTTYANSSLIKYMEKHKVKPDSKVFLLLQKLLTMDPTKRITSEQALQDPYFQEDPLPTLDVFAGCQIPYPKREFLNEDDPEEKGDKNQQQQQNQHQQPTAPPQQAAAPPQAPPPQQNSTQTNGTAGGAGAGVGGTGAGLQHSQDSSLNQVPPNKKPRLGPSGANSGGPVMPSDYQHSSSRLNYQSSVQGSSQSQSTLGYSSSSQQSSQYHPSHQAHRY

Series 1 — technique: protein-binding microarray; molecule type: double-stranded DNA, one strand shown; medium: in vitro; concentration: not given; direction: higher = stronger binding; quantity: E-score
Target: Protein C-ets-1 (ETS1, Homo sapiens, UniProt P14921, residues 1-441, full length assumed)
Setting: k-mer, scored over probes, only values ≥0.25
Residues (chain): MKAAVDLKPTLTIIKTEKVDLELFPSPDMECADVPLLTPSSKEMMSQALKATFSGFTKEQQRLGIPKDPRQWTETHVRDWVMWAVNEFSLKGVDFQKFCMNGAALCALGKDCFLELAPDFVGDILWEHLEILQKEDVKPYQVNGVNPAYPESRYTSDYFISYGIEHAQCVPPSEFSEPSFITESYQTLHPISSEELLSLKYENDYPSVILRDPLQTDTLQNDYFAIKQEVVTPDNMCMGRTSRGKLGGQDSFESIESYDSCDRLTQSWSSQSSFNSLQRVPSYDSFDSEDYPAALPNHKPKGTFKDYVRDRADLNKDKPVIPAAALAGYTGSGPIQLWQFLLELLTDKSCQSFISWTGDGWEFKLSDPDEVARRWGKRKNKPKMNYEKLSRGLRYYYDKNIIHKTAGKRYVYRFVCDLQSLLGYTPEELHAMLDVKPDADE
Sequence = CGGAAAAC; result = 0.373
Sequence = GTGAGGAA; result = 0.263
Sequence = GCGGAAGA; result = 0.401
Sequence = GCGGAACA; result = 0.273
Sequence = ATCCATCC; result = 0.335
Sequence = ATCCGCAC; result = 0.388
Sequence = GCGCGGAA; result = 0.304
Sequence = GTGCGGAA; result = 0.402

Series 2 — effect on: enzyme activity; action: inhibitor; concentration: 0.5 µM; relative to: control; quantity: remaining activity
Target: Myotonin-protein kinase (DMPK, Homo sapiens, UniProt Q09013)
UniProt Q09013, sequence (whole entry, looked up): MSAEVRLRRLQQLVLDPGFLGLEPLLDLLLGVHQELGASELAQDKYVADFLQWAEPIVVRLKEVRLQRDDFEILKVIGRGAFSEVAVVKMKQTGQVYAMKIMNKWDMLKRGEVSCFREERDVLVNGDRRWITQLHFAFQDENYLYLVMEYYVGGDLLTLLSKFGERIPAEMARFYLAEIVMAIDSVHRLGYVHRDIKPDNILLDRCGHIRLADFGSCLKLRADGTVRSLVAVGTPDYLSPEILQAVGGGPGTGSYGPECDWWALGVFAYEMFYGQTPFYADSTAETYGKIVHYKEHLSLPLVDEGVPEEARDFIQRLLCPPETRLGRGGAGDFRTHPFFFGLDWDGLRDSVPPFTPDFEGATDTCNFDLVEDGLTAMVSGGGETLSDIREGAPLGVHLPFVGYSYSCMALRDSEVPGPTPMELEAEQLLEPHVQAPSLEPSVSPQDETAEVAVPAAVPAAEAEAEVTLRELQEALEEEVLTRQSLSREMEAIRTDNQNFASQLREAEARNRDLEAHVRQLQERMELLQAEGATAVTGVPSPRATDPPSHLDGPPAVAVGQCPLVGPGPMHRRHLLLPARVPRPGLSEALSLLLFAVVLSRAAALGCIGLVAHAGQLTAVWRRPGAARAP
SMILES = COc1ccc(COc2ccc(Cc3cnc(N)nc3N)cc2OC)cc1; result = 101%
SMILES = CN1CCN(c2ccc3nc(-c4c(N)c5c(F)cccc5[nH]c4=O)[nH]c3c2)CC1; result = 107%
SMILES = Cc1ccc(S(=O)(=O)/C=C/C#N)cc1; result = 89%
SMILES = N#C/C(=C(/N)SC1C=CC=CC1)c1cccc(C(O)c2ccncc2)c1 (stereo not shown); result = 126%
SMILES = O=C1Nc2ccc(Br)cc2/C1=C/c1cc2c([nH]1)CCCC2; result = 101%
SMILES = c1ccc(-c2n[nH]c3c2oc2ccccc23)cc1; result = 99.5%
SMILES = CN(C)S(=O)(=O)c1ccc2c(c1)/C(=C/c1cc3c([nH]1)CCCC3)C(=O)N2; result = 102%
SMILES = O=Nc1c(-c2c(O)[nH]c3ccccc23)[nH]c2ccccc12; result = 101%
SMILES = Clc1ccc(Nc2nnc(Cc3ccncc3)c3ccccc23)cc1; result = 102%
SMILES = Oc1cccc(-c2nc(N3CCOCC3)c3oc4ncccc4c3n2)c1; result = 99.5%
SMILES = NC(=O)c1ccc(-c2nc(-c3ccc4c(c3)OCCO4)c(-c3ccccn3)[nH]2)cc1; result = 99.9%
SMILES = O=C(c1ccccc1)c1ccc(N2CCOCC2)cc1O; result = 98.9%
SMILES = CCN(CC)CCCCN1c2ccccc2Oc2ccc(Cl)cc21; result = 99.2%
SMILES = FC(F)(F)c1ccc(/C=C/c2nc(COc3ccc(CCCCn4ccnn4)cc3)co2)cc1; result = 101%
SMILES = CC(C)(C)c1nc2c3cc[nH]c(=O)c3c3cc(F)ccc3c2[nH]1; result = 105%
SMILES = CC(C)N(CCC(=O)c1ccc2ccccc2c1)Cc1ccccc1; result = 108%
SMILES = O=C(c1cc2cc(O)ccc2[nH]1)c1cc2cc(O)ccc2[nH]1; result = 96.9%

Series 3 — technique: protein binding microarray; molecule type: double-stranded DNA, one strand shown; medium: in vitro; concentration: not given; relative to: not given; direction: higher = stronger binding; quantity: E-score
Target: Histone acetyltransferase KAT6A, winged helix 2, GST fusion (KAT6A, Homo sapiens, UniProt Q92794, residues 85-181)
Setting: 8-mer, flanks averaged, mean of 2 arrays, mostly near background
Residues (chain): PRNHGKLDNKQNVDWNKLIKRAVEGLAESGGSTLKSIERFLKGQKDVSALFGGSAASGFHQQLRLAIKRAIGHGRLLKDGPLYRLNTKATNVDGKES
Sequence = AAGCCCAT; result = -0.189
Sequence = TCCTATAA; result = -0.127
Sequence = CATCGAGA; result = -0.0101
Sequence = CATAATTA; result = 0.0794
Sequence = CTTACATC; result = -0.141
Sequence = GATCAAGC; result = 0.0176
Sequence = ATTAAATC; result = 0.156
Sequence = GTCCTACA; result = 0.0644

Series 4 — concentration: 1 µM; quantity: remaining binding
SMILES: Cc1c(NC(=O)c2cc(C(N)=O)nc3cc(F)ccc23)c(C(F)(F)F)nn1Cc1ccc(C(C)(C)C)cc1
target = STK16 (Homo sapiens, UniProt O75716); test = cell-free assay, competition with immobilised ligand; result = 83%
target = MAP3K1 (Homo sapiens, UniProt Q13233); test = cell-free assay, competition with immobilised ligand; result = 100%
target = CDK19 (Homo sapiens, UniProt Q9BWU1); test = competition binding; result = 100%
target = PRKD3 (Homo sapiens, UniProt O94806); test = cell-free assay, competition with immobilised ligand; result = 100%
